Published values gathered from unrelated publications.
Compare with care: the assays were run in different laboratories. “And” joins repeats or separate records; there may be more than shown. Numbers after ± are the reported error.
Cell line: HepG2

Under “point of departure”, CCc1ccc(CCOc2ccc(CC3SC(=O)NC3=O)cc2)nc1 (stereo not drawn) is recorded as 0.457 µM (MTT, refers to: MTT response; 24 h, distribution mode 1).
For CC(=O)c1nn(-c2ccccc2Cl)/c(=N/N=C(\C)c2ccc(NC(=O)c3ccccc3)cc2)s1, the cytotoxicity was 93.9% (MTT; 10 µM).
The selectivity index of CCOC(=O)c1sc(=NN=C(C)c2c(O)c3ccccc3oc2=O)[nH]c1C is reported as greater than 1.75 (cell growth, MTT; reference: IC50 BJ-1 over HepG2).
With CCOC(=O)c1c(-c2ccc(OC)cc2)oc2ccc(OCc3cn(C[C@H]4O[C@H](O[C@H]5O[C@H](CO)[C@@H](O)[C@H](O)[C@H]5O)[C@H](O)[C@@H](O)[C@@H]4O)nn3)c(CN3CCCCC3)c12 the IC50 was greater than 200 µM (cytotoxicity, resazurin; 18 h).
The EC50 of CCOC(=O)c1cccc(NC(=O)c2sccc2S(=O)(=O)N(C)c2cccc(OCC)c2)c1 is reported as 31 µM (SRE promoter reporter, activator, luciferase reporter).
With CC(=O)c1nn(-c2ccc(C)cc2)/c(=N/N=C(\C)c2ccc(NC(=O)c3ccccc3)cc2)s1 the cytotoxicity was 94.1% (MTT; 1.25 µM).
The ROS level of C[C@H]1O[C@@H](O[C@H]2CC[C@@]3(C)[C@@H](CC[C@]4(C)[C@@H]3C=C[C@]35OC[C@@]6(CCC(C)(C)C[C@H]63)[C@@H](O)C[C@]54C)[C@]2(C)CO)[C@H](O)[C@@H](O[C@@H]2O[C@H](CO)[C@@H](O)[C@H](O)[C@H]2O)[C@H]1O is reported as 1.33 and 1.09 and 1.91 (flow cytometry; concentration not given, high concentration, unit not given, together with: ethanol; reference: control).
With CC(=NN=c1[nH]c(C)c(N=Nc2ccccc2)s1)c1c(O)c2ccccc2oc1=O the selectivity index was greater than 1.4 (cell growth, MTT; reference: IC50 BJ-1 over HepG2).
For CCOC(=O)c1nn(-c2cccc(Cl)c2)/c(=N/N=C(\C)c2ccc(NC(=O)c3ccccc3)cc2)s1, the cytotoxicity was 74.1% (MTT; 0.156 µM).
The EC50 of NC[C@@H](OCC(=O)N1CCC[C@H](C(=O)NCc2nc(-c3ccc(C(F)(F)F)cc3)cs2)C1)c1ccccc1 is reported as roughly 20 µM (cytotoxicity).
CC(=O)c1nn(-c2ccc(Cl)cc2)/c(=N/N=C(\C)c2ccc(NC(=O)c3ccc(C)cc3)cc2)s1 has a viability of 2.82% (2.5 µM).
For CNC(=O)c1cc(Oc2ccc(NC(=O)Nc3ccc(Cl)c(C(F)(F)F)c3)cc2)ccn1, “MitoTracker Red fluorescence loss” read greater than 50% (mitochondrial membrane potential; 5 to 25 µM, 24 h).
CC(=NN=C1NC(=O)C(C)S1)c1c(O)c2ccccc2oc1=O (stereo not drawn) has a selectivity index of greater than 2.36 (cell growth, MTT; reference: IC50 BJ-1 over HepG2).
For Nc1n[nH]c2nc(-c3cccc(O)c3)cc(-c3cc4ccccc4nc3N3CCOCC3)c12, the selectivity ratio was 4.41 (MTT; reference: WI-38 EC50 over HepG2 IC50).
For O=C(O)Cc1ccccc1Nc1c(Cl)cccc1Cl, “representative mode point of departure” read 126 µM (protein level, refers to: BiP; 24 h).
Nc1ccn([C@H]2CC[C@@H](CO)O2)c(=O)n1: “mitochondrial DNA content” 12.2 ± 2.8% (qPCR; 20.0 µM, 10 days, 2; reference: untreated).
CCOC(=O)/C=C\C(=O)OCC — result for “point of departure”: 186 µM and 204 µM (high content imaging, refers to: DNA structure; 24 h, distribution mode 2).
The IC50 of NC(=S)N/N=C1\C(=O)N(CCn2ncc3c(=O)[nH]cnc32)c2ccc(F)cc21 is reported as 9.96 ± 3.35 µg/mL (cell growth, SRB; 72 h).
For CCC1=C(CC)/C(=C/NC23CC4CC(CC(C4)C2)C3)N=C1c1cc2ccccc2[nH]1, the selectivity index was 99.8 (reference: HepG2 IC50 over P. falciparum D6 IC50).
CCOc1ccc(N(C)S(=O)(=O)c2cc(Cl)sc2C(=O)Nc2ccc3c(c2)C(=O)NC3=O)cc1OC has an EC50 of 29 µM (SRE promoter reporter, activator, luciferase reporter).
For COc1ccc(NC(=O)c2c(Nc3ccccc3)sc(C#N)c2NC(=O)CNc2ccc(Cl)cc2)cc1, “cells in S phase” read 33.5 ± 4.32% (flow cytometry; IC50, 24 h).
The EC50 of CCS(=O)(=O)c1nc(S(=O)(=O)c2ccccc2Cl)c(N2CC3(CC3)C2)s1 is reported as greater than 13.2 µM (Nrf2 activation, activator).
The viability of COc1ccc(-n2nc(C(C)=O)s/c2=N\N=C(/C)c2ccc(NC(=O)c3ccccc3)cc2)cc1 is reported as 89.4% (0.312 µM).
O=C(CCc1ccc(O)cc1)c1c(O)cc(O)cc1O has an IC50 of 239 µM (cell viability, MTT; 24 h).
The selectivity index of CNC(=S)NN=C(C)c1c(O)c2ccccc2oc1=O is reported as greater than 2.08 (cell growth, MTT; reference: IC50 BJ-1 over HepG2).
The cytotoxicity of CCOC(=O)c1nn(-c2cccc(Cl)c2)/c(=N/N=C(\C)c2ccc(NC(=O)c3ccc(Cl)cc3)cc2)s1 is reported as 96% (MTT; 10 µM).
Under “point of departure”, COC(=O)[C@]12CCC(C)(C)C[C@H]1[C@H]1C(=O)C=C3[C@@]4(C)C=C(C#N)C(=O)C(C)(C)[C@@H]4CC[C@@]3(C)[C@]1(C)CC2 is recorded as 0.0437 µM (high content imaging, refers to: DNA structure; 24 h, distribution mode 1).
For CCn1cc(-c2cc(Cn3ccoc3=N)cc3c2CCN([C@@H](C)c2cc(OC)ccn2)C3=O)c(C(F)(F)F)n1, the EC50 was 1.44 µM (cell growth, inhibitor; 120 h).
Under “point of departure”, CC(C)(C)c1cc(O)ccc1O is recorded as 138 µM (high content imaging, refers to: DNA structure; 24 h, representative mode).
For O=C1C(=O)N(CCn2ncc3c(=O)[nH]cnc32)c2ccc(Cl)cc21, the IC50 was 5.31 ± 3.22 µg/mL (cell growth, SRB; 72 h).
For CCCOc1nc(-c2cccc(O)c2)cc(-c2cc3ccccc3nc2N2CCOCC2)c1C#N, the selectivity ratio was 0.45 (MTT; reference: WI-38 EC50 over HepG2 IC50).
N#C[C@@]1(c2ccc3c(N)ncnn23)O[C@H](CO)[C@@H](O)[C@H]1O: “mitochondrial DNA content” 83.3 ± 11.7% (qPCR; 100 µM, 10 days, 3; reference: untreated).
CCOC(=O)[C@H](Cc1ccccc1)NC(=O)c1cc(Cl)c(OCCN2CCN(C)CC2)c(Cl)c1O.Cl.Cl — result for “genes shifted to proximal PAS”: 847 genes (PAS-seq; 20 µM, 4 h, distal to proximal).
The cells killed of CC(C)Cc1ccc([C@@H](C)[C@H](O)CC(C)C)cc1 (racemic) is reported as 94% (250 µM, 48 h).
For CC(=O)c1nn(-c2ccc(Cl)cc2)/c(=N/N=C(\C)c2ccc(NC(=O)c3ccc(Cl)cc3)cc2)s1, the viability was 61.9% (5 µM).
Under “TNF-α mRNA level”, c1cnc2c(c1)ccc1cccnc12 is recorded as “increased” (25 µg/mL; reference: untreated).
Under “point of departure”, CN(CCOc1ccc(CC2SC(=O)NC2=O)cc1)c1ccccn1 (stereo not drawn) is recorded as 3.89 µM (TMRE, refers to: mitochondrial membrane potential; 24 h, distribution mode 1).
O=C(COP(=O)(O)O)[C@@H](O)[C@H](O)[C@H](O)COP(=O)(O)O has a 2-PG/3-PG ratio of 0.419 and 0.369 and 0.342 (LC-MS/MS; concentration not given; reference: 2-PG over 3-PG).
CC(=NN=c1sc(N=Nc2ccccc2)c(C)n1C)c1c(O)c2ccccc2oc1=O gave a selectivity index of greater than 1.56 (cell growth, MTT; reference: IC50 BJ-1 over HepG2).
For CC(=O)Nc1ccc(/C(C)=N/N=c2\sc(C(C)=O)nn2-c2ccc(C)cc2)cc1, the cytotoxicity was 14% (MTT; 5 µM).
Cc1nc2ccccc2n(CC(=O)Nc2ccc(C(=O)Nc3cccc(Cl)c3)cc2)c1=O — result for “early apoptotic cells”: 35.8 ± 3.18% (Annexin V-FITC/PI staining; 2.3 µM).
COc1ccc(NC(=O)c2c(Nc3ccccc3)sc(C(=O)NN=Cc3ccc(OC)c(O)c3)c2NC(C)=O)cc1: “late apoptotic cells” 7.02 ± 0.81% (annexin V-FITC/PI; concentration not given).

Repeated from above:
The cytotoxicity of CCOC(=O)c1nn(-c2cccc(Cl)c2)/c(=N/N=C(\C)c2ccc(NC(=O)c3ccc(Cl)cc3)cc2)s1 is reported as 96% (MTT; 10 µM).
CC(=O)c1nn(-c2ccc(Cl)cc2)/c(=N/N=C(\C)c2ccc(NC(=O)c3ccc(C)cc3)cc2)s1 has a viability of 2.82% (2.5 µM).
For COc1ccc(NC(=O)c2c(Nc3ccccc3)sc(C#N)c2NC(=O)CNc2ccc(Cl)cc2)cc1, “cells in S phase” read 33.5 ± 4.32% (flow cytometry; IC50, 24 h).
Under “point of departure”, CCc1ccc(CCOc2ccc(CC3SC(=O)NC3=O)cc2)nc1 (stereo not drawn) is recorded as 0.457 µM (MTT, refers to: MTT response; 24 h, distribution mode 1).
